# Measurements gathered from unrelated publications.
# Protein sequences, listed by entry. Tags and fused reporters are not part of them. Residues count along the entry.
# UniProt P49058, whole entry: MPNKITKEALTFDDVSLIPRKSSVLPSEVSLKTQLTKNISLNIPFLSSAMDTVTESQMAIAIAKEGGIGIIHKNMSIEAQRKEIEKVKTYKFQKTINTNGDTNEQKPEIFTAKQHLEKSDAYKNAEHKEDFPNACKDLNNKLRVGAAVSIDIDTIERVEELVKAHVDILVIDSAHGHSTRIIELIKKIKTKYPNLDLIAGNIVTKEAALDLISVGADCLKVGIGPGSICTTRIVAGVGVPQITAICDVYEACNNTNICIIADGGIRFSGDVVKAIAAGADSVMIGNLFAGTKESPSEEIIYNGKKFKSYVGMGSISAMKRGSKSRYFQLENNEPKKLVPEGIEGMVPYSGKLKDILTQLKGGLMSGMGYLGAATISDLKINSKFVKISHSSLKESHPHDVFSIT
# UniProt Q9K054, 1-233: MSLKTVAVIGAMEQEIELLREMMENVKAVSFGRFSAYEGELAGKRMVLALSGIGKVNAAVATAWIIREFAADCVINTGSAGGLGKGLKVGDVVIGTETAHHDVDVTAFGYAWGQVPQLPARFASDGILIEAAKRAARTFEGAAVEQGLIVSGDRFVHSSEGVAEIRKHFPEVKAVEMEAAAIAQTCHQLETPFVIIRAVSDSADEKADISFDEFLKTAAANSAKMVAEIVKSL
# UniProt P00533, 25-1210 limits assumed: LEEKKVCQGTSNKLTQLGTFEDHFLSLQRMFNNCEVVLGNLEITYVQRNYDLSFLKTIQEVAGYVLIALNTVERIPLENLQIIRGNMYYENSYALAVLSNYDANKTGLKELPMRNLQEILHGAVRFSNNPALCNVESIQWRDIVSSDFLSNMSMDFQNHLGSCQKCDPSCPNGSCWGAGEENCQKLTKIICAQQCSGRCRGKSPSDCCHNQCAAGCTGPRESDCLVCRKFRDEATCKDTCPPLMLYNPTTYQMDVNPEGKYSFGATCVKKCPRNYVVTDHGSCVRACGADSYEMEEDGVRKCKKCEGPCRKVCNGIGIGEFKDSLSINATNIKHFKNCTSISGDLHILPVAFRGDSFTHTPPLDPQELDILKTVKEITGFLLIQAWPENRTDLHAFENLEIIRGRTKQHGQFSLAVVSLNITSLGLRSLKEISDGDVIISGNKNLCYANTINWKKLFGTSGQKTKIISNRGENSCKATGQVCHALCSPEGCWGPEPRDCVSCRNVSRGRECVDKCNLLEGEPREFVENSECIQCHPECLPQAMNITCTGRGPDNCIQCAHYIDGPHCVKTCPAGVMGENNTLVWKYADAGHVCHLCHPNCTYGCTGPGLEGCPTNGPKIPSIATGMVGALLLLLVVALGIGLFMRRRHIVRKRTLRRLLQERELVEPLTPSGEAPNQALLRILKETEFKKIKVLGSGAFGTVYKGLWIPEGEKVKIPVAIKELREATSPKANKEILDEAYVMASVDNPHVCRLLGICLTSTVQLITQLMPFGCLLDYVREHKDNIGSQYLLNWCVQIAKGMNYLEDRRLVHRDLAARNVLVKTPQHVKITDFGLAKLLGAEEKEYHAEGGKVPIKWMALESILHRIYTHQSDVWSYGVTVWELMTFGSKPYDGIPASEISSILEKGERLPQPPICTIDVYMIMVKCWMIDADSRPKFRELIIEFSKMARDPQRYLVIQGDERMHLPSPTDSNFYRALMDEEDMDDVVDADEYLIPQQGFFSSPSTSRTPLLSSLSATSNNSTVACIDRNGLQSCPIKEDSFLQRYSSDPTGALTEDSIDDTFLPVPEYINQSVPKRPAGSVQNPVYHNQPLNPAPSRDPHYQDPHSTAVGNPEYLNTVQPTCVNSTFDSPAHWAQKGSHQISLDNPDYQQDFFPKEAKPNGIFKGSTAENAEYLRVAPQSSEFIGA
# UniProt Q8IM16, 122-449 limits assumed: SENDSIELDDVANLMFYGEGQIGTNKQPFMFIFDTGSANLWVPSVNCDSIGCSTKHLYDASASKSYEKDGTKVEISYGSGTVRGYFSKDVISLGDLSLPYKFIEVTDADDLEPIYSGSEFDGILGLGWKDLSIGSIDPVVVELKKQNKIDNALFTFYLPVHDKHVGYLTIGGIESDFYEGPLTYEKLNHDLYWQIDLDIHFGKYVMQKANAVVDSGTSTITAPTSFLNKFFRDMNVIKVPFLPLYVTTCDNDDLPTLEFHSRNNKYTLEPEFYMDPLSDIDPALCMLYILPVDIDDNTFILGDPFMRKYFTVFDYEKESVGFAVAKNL
# UniProt P00784, whole entry, looked up: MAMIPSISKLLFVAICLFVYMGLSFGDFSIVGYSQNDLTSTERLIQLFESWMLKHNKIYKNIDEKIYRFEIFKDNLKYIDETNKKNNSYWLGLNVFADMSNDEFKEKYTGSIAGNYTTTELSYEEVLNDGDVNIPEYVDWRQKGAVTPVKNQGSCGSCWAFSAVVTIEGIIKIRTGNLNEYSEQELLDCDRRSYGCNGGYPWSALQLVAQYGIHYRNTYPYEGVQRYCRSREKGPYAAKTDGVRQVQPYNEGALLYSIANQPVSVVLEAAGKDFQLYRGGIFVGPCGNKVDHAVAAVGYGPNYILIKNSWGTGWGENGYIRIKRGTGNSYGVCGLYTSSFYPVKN
# UniProt P53634, whole entry, looked up: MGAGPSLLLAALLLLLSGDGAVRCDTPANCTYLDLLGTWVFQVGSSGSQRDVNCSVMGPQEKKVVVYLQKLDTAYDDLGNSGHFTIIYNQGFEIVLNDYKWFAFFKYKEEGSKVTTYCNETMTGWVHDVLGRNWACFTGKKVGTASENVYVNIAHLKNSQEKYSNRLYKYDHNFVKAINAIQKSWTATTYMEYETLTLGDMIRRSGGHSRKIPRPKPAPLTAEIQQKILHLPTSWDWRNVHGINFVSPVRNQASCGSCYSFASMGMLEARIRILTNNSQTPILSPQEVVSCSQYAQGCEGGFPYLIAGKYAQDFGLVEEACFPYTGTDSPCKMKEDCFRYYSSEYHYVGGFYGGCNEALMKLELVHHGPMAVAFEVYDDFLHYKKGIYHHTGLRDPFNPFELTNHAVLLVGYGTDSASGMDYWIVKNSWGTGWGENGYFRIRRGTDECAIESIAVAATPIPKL
# UniProt O00519, whole entry: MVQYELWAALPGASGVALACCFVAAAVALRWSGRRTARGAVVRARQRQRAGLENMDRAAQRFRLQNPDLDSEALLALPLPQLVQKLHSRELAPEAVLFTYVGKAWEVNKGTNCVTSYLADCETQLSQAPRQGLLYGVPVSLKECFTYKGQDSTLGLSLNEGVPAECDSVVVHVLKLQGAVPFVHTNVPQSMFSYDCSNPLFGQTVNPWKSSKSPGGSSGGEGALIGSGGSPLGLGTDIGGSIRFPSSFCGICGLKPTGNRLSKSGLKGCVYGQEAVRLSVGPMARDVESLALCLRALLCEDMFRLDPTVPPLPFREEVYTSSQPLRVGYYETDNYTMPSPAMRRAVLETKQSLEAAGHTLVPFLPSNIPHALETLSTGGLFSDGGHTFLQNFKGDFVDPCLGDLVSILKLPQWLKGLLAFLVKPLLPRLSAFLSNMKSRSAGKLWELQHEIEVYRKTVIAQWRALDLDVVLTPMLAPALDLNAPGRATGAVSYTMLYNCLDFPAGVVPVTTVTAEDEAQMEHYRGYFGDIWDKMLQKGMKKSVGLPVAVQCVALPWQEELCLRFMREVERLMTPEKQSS
# UniProt Q8TYM5, whole entry: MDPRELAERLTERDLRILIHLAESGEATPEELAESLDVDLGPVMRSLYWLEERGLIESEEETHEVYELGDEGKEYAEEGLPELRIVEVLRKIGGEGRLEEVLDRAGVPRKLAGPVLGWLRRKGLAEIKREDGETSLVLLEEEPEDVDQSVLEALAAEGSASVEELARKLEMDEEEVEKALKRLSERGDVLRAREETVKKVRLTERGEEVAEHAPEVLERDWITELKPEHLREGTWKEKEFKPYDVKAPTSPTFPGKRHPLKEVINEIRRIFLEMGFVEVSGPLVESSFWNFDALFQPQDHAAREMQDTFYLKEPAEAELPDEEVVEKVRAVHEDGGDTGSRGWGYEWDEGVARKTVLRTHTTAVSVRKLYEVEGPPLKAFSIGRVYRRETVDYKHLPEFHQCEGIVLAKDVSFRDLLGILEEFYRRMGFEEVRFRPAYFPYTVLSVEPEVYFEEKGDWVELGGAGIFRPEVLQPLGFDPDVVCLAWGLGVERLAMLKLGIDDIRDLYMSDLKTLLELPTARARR
# UniProt P06802, 92-905 isoform 2 limits assumed: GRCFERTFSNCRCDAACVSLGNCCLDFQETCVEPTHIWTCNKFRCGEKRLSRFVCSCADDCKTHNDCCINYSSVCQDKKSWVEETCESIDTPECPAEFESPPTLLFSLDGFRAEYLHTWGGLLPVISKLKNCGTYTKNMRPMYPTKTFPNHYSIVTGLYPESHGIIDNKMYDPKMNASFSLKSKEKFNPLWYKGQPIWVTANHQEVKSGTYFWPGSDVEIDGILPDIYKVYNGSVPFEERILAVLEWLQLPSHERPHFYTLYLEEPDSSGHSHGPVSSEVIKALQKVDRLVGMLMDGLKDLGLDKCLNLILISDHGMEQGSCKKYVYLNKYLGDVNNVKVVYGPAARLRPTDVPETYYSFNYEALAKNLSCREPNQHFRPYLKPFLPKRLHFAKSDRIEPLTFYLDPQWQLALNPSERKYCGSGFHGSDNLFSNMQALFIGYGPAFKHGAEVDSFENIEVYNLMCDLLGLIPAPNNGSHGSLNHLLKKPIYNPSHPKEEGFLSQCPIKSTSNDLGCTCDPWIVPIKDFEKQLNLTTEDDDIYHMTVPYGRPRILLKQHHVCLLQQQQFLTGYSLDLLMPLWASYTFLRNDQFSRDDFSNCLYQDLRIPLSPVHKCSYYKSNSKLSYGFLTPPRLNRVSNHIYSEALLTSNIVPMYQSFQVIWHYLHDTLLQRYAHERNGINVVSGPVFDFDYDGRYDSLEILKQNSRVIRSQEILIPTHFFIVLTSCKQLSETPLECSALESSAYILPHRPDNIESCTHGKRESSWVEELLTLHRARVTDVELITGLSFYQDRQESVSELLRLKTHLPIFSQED
# UniProt Q8TX56, whole entry partner: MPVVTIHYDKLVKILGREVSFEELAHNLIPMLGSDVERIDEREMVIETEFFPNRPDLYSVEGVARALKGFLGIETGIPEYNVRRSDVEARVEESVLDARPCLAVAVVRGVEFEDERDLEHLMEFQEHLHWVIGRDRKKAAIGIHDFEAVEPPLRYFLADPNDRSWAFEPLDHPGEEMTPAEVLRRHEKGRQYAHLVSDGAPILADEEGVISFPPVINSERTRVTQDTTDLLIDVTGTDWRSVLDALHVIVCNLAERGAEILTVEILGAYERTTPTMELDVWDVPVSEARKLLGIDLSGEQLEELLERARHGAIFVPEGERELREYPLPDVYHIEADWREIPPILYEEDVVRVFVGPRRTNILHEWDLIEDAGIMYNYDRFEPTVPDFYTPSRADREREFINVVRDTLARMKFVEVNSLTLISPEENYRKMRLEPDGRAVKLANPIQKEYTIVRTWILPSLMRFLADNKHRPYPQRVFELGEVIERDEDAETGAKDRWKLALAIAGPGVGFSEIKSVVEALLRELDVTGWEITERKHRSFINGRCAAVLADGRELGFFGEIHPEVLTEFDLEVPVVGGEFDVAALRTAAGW
# Values joined by “and” are separate records of one study, mostly repeats; a detail may differ. ± marks the error that the study gave.
# ADC-7 beta-lactamase: ADC-7 beta-lactamase (Acinetobacter baumannii, UniProt Q6DRA1)
Compound,target,assay,conditions,measurement,result
CC(C)(NC(=O)Nc1ccc(Cl)cc1)c1cccc(C(=N)NO)c1,"IMPDH 2, Staphylococcus aureus",inhibitor,"together with: 500 µM NAD+, 1.0 mM IMP",Ki,0.0127 ± 0.0004 µM
C#CCOCCC(=O)N[C@H](Cc1ccccc1)C(=O)N[C@@H](Cc1ccccc1)C(=O)N[C@@H](CCCNC(=N)N)C(=O)CCl,"Replicase polyprotein 1ab, main protease (rep, Severe acute respiratory syndrome coronavirus 2, UniProt P0DTD1)","enzyme activity, inhibitor",,Ki,0.3 ± 0.04 µM
CC(Oc1ccccc1)C(=O)Nc1ccc(Cl)cc1 (stereo not shown),"Inosine-5'-monophosphate dehydrogenase (Borreliella burgdorferi, UniProt P49058)","enzyme activity, inhibitor",corrected for open enzyme conformation,IC50,0.84 µM
CCN1CCN(C(=O)N[C@@H](C(=O)NCB2OC(C)(C)C(C)(C)O2)c2ccc(O)cc2)C(=O)C1=O,ADC-7 beta-lactamase,inhibitor,"pH 7.4, room temperature, together with: nitrocefin substrate",Ki,≤ 1 µM and 0.6 µM
CSCC(CO)NCc1c[nH]c2c(N)ncnc12 (stereo not shown),"MTA/SAH nucleosidase (Neisseria meningitidis, UniProt Q9K054)","MTA hydrolysis, inhibitor",,Ki,0.0008 ± 6e-05 µM
C=CC(=O)Nc1cc(-n2c(=O)ccc3cnc4ccc(-c5cn[nH]c5)cc4c32)ccc1C,"Epidermal growth factor receptor (EGFR, Homo sapiens, UniProt P00533)","kinase activity, inhibitor",,IC50,0.597 µM
CSC[C@H](NC(=O)Cc1ccc(N)cc1)C(=O)N[C@@H](Cc1ccccc1)[C@H](O)C(=O)N1CSC(C)(C)[C@H]1C(=O)N[C@H]1c2ccccc2C[C@H]1O,"Plasmepsin IV (PMIV, Plasmodium falciparum 3D7, UniProt Q8IM16)","inhibitor, fluorogenic substrate","pH 5.0, mature enzyme",Ki,0.006 µM
[N-]=[N+]=CC(=O)[C@H](Cc1cccc([N+](=O)[O-])c1)NC(=O)OCc1ccccc1,"Papain (Carica papaya, UniProt P00784)","enzyme activity, inhibitor",,IC50,32.8 ± 13 µM
CC(C)CC(NC(=O)C1OC1C(=O)O)C(=O)NCCCCN=C(N)N (stereo not shown),"Dipeptidyl peptidase 1 (CTSC, Homo sapiens, UniProt P53634)","enzyme activity, inhibitor",,IC50,0.96 µM
[2H]C1(C(=O)Nc2ccc3cc(C(=O)O)ccc3c2)CCN(S(=O)(=O)c2ccc(C)cc2C)CC1,"Fatty-acid amide hydrolase 1 (FAAH, Homo sapiens, UniProt O00519)",,"pH 8, 37 °C, together with: OMP substrate 50 µM",IC50,20 µM
O=C(Cc1cccs1)N[C@@H](Cn1cc(C(=O)NO)nn1)B(O)O,ADC-7 beta-lactamase,"enzyme activity, inhibitor","5 min preincubation, pH 7.4, room temperature, together with: nitrocefin",Ki,0.155 ± 0.003 µM
C1=C(CCNCc2ccccc2)CCCC1,"Phenylalanine--tRNA ligase alpha subunit (pheS, Methanopyrus kandleri, UniProt Q8TYM5)","phenylalanine activation, inhibitor",,IC50,> 300 mg/L
CCOc1cccc2c(N3CCC(CCP(=O)(O)O)CC3)ncnc12,"Ectonucleotide pyrophosphatase/phosphodiesterase family member 1 (Enpp1, Mus musculus, UniProt P06802)","enzyme activity, inhibitor, coupled luciferase AMP detection","pH 7.4, together with: cGAMP 5 µM",Ki,< 0.002 µM

# Repeated from above:
Compound,target,assay,conditions,measurement,result
CC(C)CC(NC(=O)C1OC1C(=O)O)C(=O)NCCCCN=C(N)N (stereo not shown),"Dipeptidyl peptidase 1 (CTSC, Homo sapiens, UniProt P53634)","enzyme activity, inhibitor",,IC50,0.96 µM
